Results collected from several papers.
Numbered parts are unrelated; each lists some results of a single study.

Series 1 — technique: RNA Bind-n-Seq; molecule type: RNA; medium: in vitro; tested at: 200 nM; setting: whole 134-nt RNA, ends assumed; added: 150 mM LiCl; reference: input library; direction: higher = stronger binding; quantity: log2 enrichment; each molecule: 7-deaza-guanosine replaces G
Target: Fragile X messenger ribonucleoprotein 1, C-terminal low-complexity region (Fmr1, Mus musculus, UniProt P35922)
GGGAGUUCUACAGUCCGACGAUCUUCCGCUGUCUUUUCUGUCUACAGUUUGCGAUCCCCGCGUCCAGGAUGGAGCAGCUGAACGAACUGGAGCUGCUGAUGGAGAAGAGUUUUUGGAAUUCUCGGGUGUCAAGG: -2.54
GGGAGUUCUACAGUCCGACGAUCAAGUCCUGUGCUACACAUCGUAUGUACCGAAUCGGGAAAAGGGAAAAGGGAAAAGGGAAAGUAUUAUGUUACGCCGUUCGGAUCUGCACUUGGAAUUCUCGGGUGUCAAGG: 0.146
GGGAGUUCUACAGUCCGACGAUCUGAACAGCUCUGCGCUUUUUGUUACUGUGGGGAAAAAAGUUCCUUAGGACAAGGAGACUUAAAACAAUUCAGAAUAACGCCUGGAUUUAUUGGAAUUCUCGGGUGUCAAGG: -2.51
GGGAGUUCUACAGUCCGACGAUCGCAGGAAGUAAAAACAAAUGGAAAUGCUUAAAAUAGUGGCAGGGGUGGGGGUUGCUAAGGAAAGGGUGGGAUGGGAGUGGGUAAAGAGUUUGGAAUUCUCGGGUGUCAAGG: 1.51
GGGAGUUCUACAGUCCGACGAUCUGGCCCUGGUGGCAUGCGGGGAGGAAGAGGUGGCCUCAUGGAUCGUGGUGGUCCCGGUGGAAUGAUCAGAGGUGGCCGUGGUGGAGACAGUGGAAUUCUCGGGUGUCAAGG: -0.5
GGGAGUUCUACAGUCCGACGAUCGUCCUGUGCUACACAUCGUAUGUACCGAAUCGGUUUUUUGGUUUUUUGGUUUUUUGGGAAAGUAUUAUGUUACGCCGUUCGGAUCUGCACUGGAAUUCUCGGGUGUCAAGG: -1.55
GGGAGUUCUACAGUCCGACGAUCUCCUGUGCUACACAUCGUAUGUACCGAAUCGGGGCCCCCGGGGCCCCCGGCCCCCGGGGAAAGUAUUAUGUUACGCCGUUCGGAUCUGCAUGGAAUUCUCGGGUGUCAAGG: -2.24
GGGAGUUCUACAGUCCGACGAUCAAGUCCUGUGCUACACAUCGUAUGUACCGAAUCAAAUUUAAAUUUAAACCCCCAAAAAAGUAUUAUGUUACGCCGUUCGGAUCUGCACUUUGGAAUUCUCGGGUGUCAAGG: 1.08

Series 2 — technique: competition protein-binding microarray; molecule type: double-stranded DNA, one strand shown; medium: in vitro; tested at: 2 µM; added: Pho4 competitor, 0.05 µM; direction: higher = stronger binding; quantity: fluorescence intensity
Target: Centromere-binding protein 1, full length, His-tagged (CBF1, Saccharomyces cerevisiae, UniProt P17106, residues 1-351)
Sequence of UniProt P17106 (whole entry, looked up): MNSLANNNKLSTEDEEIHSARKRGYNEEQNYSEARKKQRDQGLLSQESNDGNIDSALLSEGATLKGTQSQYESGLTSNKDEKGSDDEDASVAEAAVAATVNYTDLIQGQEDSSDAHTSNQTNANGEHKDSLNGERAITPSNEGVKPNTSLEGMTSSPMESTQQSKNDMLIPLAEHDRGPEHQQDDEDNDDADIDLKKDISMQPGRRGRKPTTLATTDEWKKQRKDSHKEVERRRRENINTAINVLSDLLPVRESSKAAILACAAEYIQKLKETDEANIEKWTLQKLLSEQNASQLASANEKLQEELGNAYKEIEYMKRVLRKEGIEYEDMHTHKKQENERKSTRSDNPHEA
Setting: whole 60-bp probe, lowest competitor level
ACCAGTAAACTCTGTCATGTGACGGTGGGTGTTGGAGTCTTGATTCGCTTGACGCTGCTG: 1440 a.u.
CTTCTGTAAATTTTTCACGTGCTGTGAAGCGCCCCGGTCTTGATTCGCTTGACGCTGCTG: 825 a.u.
TGCGCAACAACTTTTCACGTGATGTTATGTCTAGAAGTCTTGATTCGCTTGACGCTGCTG: 3490 a.u.
AGATGCAGGACTCGGCACGTTTTACAATACGTATCGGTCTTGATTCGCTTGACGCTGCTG: 126 a.u.
CTTGAGCGAAGCCGTCACATGGACCGGGAAATGGGTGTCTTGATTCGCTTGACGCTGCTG: 391 a.u.
CTTTCCCGATCTTGACACGTGTTTTTAGCACATTTGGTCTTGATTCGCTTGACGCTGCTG: 1750 a.u.
TGCGCAACAACTTGATTGGTGGGTGTATGTCTAGAAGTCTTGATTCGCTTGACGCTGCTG: 71.5 a.u.
TGCGCAACAACTTGGGTTGTGGGTGTATGTCTAGAAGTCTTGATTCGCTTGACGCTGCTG: 70.7 a.u.
CAAGTTGTCTTTCAGCACATGGAGAGGTGGGAGTGCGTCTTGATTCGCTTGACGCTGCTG: 71.5 a.u.
CGTCCTAGTGATTGTCACGCTACTTCCATGAGGAAGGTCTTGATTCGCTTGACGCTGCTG: 239 a.u.
AAATTACTAAGTTGCCGTGTGGGTGACGCCGTATGAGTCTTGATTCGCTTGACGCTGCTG: 67 a.u.
TGCGCAACAACTTTTCACGTGTCATTATGTCTAGAAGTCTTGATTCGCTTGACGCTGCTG: 1280 a.u.
ATAAGAAGTGTTTGGAACGTGCAAATCTTTCATAACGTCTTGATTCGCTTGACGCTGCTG: 119 a.u.
AATATTATTAAAAATTGCCGCTGTCATACTGTACGAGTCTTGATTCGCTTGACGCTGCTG: 89.5 a.u.
TGCATTCAAAACATCAACGTGGCCGTCCCATAAGGCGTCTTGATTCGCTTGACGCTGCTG: 107 a.u.

Series 3 — technique: protein binding microarray; molecule type: double-stranded DNA, one strand shown; medium: in vitro; tested at: not given; reference: not given; direction: higher = stronger binding; quantity: E-score
Target: Histone acetyltransferase KAT6A, winged helix 2, GST fusion (KAT6A, Homo sapiens, UniProt Q92794, residues 85-181)
Setting: 8-mer, flanks averaged, mean of 2 arrays, mostly near background
Target sequence (chain): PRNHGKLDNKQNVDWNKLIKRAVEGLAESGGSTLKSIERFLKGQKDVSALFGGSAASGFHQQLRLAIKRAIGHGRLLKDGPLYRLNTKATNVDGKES
CCCACTCC: -0.0535
CCATTGGA: 0.0156
CTTCGTCA: 0.0315
CATAGCCA: 0.025
ACTGCGAG: -0.0501
ACAGCCGA: -0.14
CACTATAG: -0.14
GGTCCAAC: -0.0346
CAGCTTTC: 0.0254
TATCTACA: -0.0945
CGCTCGAG: 0.168
ACTGAACG: -0.12
CTGTACCA: -0.112
AGTTACCG: 0.0379
ACTGGTAT: 0.0577
ACTTATGC: -0.0805
CGGTGCGC: 0.205
AGAACCCC: -0.297
CTACGAGA: -0.0774
AAACTACT: -0.0182
GATTCTAA: 0.132
AGCTCCAC: 0.0031
CTTGTGGA: -0.0288
CTGCGATC: -0.0192
CGCCAAGA: -0.0636

Series 4 — technique: RNA Bind-n-Seq; molecule type: RNA; medium: in vitro; tested at: not given; setting: RNA with constant flanks, ends assumed; reference: input RNA pool; direction: higher = stronger binding; quantity: bound/input enrichment
Target: RING finger protein unkempt homolog, zinc fingers 1-6, GST-SBP tag (UNK, Homo sapiens, UniProt Q9C0B0, residues 30-357)
Target sequence (chain): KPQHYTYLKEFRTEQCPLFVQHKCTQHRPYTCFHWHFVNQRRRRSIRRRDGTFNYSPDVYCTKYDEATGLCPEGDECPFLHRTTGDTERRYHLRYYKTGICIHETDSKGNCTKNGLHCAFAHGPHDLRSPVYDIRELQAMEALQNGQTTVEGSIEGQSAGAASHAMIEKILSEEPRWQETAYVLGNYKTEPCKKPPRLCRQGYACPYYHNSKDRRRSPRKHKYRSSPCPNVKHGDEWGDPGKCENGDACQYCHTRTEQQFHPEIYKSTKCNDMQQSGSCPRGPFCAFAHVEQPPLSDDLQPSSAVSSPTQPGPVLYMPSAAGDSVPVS
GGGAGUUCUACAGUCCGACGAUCAAACAUCUUCUCAAGCAGUCAACGUAGAAUGCUUGGGAAAUAGUCAUAAUUACCCACAUACCGUAAUUAAUAGAUGGUAAUUAAUUGAUCCUUGAUGUGAUGUUCUUUUGCAUAUUUCCUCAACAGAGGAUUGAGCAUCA: 0.465 ratio
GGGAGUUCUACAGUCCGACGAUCACUGGUGGUGCAGCCUCUGUGAAGCAGCACCAUUCAAGUGCCCAUAACAAAGAUAUUGCUUCCGGGGUAUUUGAUGUGGUGGUGACGGACCCCUCAUGCCCAGCCUCGGUGCUGAAGUGUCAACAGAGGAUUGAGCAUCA: 0.0788 ratio
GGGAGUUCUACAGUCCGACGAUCAAUGCAUCUCUUCAAGACCAUAUUUACCCGAGCUGUUUUGGGAACACUCCAGACUGGAACCGUUCUAAAUUUAUAAGUCUUUGGGAAUCAGAAAUGAUGAAUGAUAAGAACUGGAACCCUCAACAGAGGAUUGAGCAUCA: 0.175 ratio
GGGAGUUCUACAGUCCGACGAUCGAAUACAUAGGUGAAGAAGAAGCUACAUUAGUUGAUUUUGUUUGCUCUAAGGUUAUGGCACACCGUUCACCACAGAGCAUUUUAGAUGAUGUUGCCAUGGUACUAGAUGAAGAAGCAGAACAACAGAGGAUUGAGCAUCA: 1.41 ratio
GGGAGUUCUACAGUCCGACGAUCAGGACUUCAUUCCUCCAUGUUUUCUUCCCUUAUCUUACUGUCAUUGUCCUUAAACCUUAUUUCCGAAAAUUGAUGAAGUAACAUGUUGCAUGUGGCUUACUCUGGCUAUAUCUAAGCCCGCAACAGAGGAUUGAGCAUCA: 0.677 ratio
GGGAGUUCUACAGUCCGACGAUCCUAGCAGUUAUAAGGCACCUUGAAAUAAAUUGUUUGUGCCUGGAAAUGCAGGGAGGGCAACCGCUUUGUAAAUUGGUUUACAUUUUUCUCCUUGAAUUUUUCUAGGGUCCUAGUGCUUCCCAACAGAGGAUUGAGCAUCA: 0.543 ratio
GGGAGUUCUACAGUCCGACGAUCUAACUAUUCAUUUUUAGCUUUUGUCUCCAGUGCAUGAUCUCAUAUUUUUGCUUUUAUUUUCCGUAUAAGAACAUUUAUAAAAUCAUAUUUUUGUUACUGCAAUUGUUUUAUUUGUUGUGUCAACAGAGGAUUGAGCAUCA: 0.781 ratio
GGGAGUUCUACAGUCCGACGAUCGUAAUCCUGGUUGCUUGGGAAGUUGAGAUAGGAUAACAAGUUCAAGGCCAGCCUGCACAACUCCGAACCUGUCUGGAAAUGAGAAAUAACUACCCUCACGAGGACUAUUAACAUAGGAUUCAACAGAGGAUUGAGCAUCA: 0.414 ratio
